# Published values collected from several papers.
# Every numbered part comes from another study and shows a few of its results, in no order.
# UniProt P11802, sequence (whole entry, looked up): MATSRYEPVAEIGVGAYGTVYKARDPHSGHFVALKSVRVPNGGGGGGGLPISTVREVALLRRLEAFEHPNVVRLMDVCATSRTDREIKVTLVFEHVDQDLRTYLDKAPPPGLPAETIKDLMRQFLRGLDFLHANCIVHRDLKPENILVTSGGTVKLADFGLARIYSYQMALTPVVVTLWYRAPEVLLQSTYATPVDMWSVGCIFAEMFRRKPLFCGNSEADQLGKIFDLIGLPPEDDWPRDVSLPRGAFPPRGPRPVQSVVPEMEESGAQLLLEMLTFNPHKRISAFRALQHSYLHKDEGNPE
# UniProt P06493, sequence (whole entry, looked up): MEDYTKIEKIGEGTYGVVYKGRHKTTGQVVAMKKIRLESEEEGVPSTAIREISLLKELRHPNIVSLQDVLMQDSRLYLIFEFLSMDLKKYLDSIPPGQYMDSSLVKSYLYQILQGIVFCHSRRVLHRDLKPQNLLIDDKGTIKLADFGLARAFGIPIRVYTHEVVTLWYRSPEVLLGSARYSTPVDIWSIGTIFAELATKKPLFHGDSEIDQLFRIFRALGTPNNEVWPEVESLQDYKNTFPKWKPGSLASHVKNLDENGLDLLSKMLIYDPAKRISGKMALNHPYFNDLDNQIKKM
# UniProt Q13523, sequence (whole entry, looked up): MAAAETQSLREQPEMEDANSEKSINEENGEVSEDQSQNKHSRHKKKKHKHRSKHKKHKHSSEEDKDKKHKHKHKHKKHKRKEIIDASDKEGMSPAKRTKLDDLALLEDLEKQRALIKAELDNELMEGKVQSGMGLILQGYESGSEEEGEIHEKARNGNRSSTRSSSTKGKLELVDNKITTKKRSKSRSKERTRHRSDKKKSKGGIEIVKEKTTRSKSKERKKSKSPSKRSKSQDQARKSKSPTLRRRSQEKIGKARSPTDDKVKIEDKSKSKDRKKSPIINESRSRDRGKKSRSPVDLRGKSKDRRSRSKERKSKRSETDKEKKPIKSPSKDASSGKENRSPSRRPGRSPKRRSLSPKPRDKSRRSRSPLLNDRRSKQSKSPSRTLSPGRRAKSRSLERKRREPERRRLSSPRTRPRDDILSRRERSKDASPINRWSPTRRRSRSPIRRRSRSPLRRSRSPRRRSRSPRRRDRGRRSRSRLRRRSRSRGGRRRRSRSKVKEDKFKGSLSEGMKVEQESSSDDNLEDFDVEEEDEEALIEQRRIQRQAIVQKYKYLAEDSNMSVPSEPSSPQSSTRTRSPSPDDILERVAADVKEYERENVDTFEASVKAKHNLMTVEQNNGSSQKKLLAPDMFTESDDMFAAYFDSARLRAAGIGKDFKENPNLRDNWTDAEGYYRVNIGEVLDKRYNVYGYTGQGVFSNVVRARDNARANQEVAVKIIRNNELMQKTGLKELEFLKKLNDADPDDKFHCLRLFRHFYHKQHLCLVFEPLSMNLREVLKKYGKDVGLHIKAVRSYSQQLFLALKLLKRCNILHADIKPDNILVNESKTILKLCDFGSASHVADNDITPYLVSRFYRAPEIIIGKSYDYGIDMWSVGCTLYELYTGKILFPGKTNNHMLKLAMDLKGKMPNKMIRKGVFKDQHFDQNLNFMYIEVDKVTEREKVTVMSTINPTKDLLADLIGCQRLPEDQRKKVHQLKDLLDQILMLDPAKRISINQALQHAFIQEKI
# UniProt P42679, sequence (whole entry, looked up): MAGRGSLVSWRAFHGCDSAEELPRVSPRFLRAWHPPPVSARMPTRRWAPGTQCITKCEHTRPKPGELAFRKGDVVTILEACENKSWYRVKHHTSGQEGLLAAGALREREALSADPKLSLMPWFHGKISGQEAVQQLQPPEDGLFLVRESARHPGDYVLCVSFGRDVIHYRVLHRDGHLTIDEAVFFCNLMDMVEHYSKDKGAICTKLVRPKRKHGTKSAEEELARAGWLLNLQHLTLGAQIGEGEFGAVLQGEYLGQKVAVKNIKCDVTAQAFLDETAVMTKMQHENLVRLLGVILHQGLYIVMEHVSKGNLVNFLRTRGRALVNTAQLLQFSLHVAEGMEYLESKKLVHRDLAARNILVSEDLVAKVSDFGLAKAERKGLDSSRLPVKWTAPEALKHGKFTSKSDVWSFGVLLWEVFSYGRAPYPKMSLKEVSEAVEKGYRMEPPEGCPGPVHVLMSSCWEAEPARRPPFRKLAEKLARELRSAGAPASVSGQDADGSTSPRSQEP
# UniProt P00519, sequence (whole entry, unmodified, looked up): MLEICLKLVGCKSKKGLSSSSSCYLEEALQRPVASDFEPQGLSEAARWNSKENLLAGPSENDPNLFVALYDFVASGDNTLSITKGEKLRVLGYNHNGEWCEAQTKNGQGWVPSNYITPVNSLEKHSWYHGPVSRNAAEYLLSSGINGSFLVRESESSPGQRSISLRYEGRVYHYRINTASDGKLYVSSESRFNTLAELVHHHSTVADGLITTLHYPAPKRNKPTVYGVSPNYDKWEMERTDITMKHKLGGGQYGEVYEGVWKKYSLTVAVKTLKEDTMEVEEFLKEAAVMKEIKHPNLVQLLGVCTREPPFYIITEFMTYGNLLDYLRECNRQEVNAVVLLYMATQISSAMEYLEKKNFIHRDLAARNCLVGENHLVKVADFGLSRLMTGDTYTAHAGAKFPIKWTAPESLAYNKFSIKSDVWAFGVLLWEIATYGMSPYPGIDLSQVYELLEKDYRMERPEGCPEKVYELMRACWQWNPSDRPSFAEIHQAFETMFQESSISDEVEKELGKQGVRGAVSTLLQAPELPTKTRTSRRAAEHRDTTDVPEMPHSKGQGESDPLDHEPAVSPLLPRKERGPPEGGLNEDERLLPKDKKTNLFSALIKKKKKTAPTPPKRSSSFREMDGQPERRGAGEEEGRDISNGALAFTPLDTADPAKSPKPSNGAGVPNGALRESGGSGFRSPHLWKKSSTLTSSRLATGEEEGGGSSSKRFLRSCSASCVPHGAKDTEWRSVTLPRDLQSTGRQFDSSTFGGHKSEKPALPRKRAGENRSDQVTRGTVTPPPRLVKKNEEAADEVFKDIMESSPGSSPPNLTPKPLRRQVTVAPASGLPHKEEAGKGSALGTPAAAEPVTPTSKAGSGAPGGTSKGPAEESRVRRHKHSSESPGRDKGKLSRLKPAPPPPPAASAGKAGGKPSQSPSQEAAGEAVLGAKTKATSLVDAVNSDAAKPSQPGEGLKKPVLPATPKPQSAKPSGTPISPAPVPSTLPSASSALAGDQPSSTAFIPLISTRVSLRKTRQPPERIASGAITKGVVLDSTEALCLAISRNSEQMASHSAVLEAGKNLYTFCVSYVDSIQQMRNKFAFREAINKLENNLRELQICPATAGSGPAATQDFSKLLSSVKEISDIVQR
# UniProt Q9Y6E0, sequence (whole entry, looked up): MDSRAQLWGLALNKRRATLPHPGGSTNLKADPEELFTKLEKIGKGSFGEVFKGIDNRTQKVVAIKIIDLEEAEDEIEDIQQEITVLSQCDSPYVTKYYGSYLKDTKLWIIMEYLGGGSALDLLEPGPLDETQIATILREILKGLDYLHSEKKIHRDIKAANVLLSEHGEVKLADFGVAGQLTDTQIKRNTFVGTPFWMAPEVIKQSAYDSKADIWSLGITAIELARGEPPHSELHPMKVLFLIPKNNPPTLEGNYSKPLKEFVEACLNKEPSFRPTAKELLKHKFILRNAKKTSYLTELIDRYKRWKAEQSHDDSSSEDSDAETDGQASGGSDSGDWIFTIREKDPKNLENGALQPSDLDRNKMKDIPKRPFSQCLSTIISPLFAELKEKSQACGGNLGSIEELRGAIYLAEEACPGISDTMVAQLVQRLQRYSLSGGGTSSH

# Series 1
# Target: Interferon regulatory factor 5, full length, phosphomimetic (IRF5, Homo sapiens, UniProt Q13568-2, residues 1-514, S451D/S453D/S456D/S462D)
# Technique: protein-binding microarray
# Molecule type: double-stranded DNA, one strand shown
# Medium: in vitro
# Tested at: 940 nM top
# Setting: 60-bp whole probe
# Together with: salmon DNA 0.4 mg/ml
# Baseline: random background probes
# Direction: higher = stronger binding
# Shared flanks, not repeated: GCCTAGCAC … GTCTTGATTCGCTTGACGCTGCTG
Sequence,fitted relative affinity [z-score]
GACGGTTTAGACTATCGGGACGTGCTA,0.35
GACGGTCTCGGTCTCTGGACGTGCTAG,3.36
GACGATTTCGGGACTGGAGAAGTGCTA,0.143
GACGGACTGGGGTTTCGGGACGTGCTA,2.05
GACGATTTCAGTATCGAGCCGTGCTAG,1.88
GGCGGTCTCCTTCTCCTGACGTGCTAG,0.143
TCATATATATCATTTAAACTGTGCTAG,0.789
GGCAGGCTTGCCAGTTCCCCGTGCTAG,-0.477

# Series 2
# Target: Sal-like protein 4, full length isoform A (SALL4, Homo sapiens, UniProt Q9UJQ4, residues 1-1053)
# UniProt Q9UJQ4, sequence (whole entry, looked up): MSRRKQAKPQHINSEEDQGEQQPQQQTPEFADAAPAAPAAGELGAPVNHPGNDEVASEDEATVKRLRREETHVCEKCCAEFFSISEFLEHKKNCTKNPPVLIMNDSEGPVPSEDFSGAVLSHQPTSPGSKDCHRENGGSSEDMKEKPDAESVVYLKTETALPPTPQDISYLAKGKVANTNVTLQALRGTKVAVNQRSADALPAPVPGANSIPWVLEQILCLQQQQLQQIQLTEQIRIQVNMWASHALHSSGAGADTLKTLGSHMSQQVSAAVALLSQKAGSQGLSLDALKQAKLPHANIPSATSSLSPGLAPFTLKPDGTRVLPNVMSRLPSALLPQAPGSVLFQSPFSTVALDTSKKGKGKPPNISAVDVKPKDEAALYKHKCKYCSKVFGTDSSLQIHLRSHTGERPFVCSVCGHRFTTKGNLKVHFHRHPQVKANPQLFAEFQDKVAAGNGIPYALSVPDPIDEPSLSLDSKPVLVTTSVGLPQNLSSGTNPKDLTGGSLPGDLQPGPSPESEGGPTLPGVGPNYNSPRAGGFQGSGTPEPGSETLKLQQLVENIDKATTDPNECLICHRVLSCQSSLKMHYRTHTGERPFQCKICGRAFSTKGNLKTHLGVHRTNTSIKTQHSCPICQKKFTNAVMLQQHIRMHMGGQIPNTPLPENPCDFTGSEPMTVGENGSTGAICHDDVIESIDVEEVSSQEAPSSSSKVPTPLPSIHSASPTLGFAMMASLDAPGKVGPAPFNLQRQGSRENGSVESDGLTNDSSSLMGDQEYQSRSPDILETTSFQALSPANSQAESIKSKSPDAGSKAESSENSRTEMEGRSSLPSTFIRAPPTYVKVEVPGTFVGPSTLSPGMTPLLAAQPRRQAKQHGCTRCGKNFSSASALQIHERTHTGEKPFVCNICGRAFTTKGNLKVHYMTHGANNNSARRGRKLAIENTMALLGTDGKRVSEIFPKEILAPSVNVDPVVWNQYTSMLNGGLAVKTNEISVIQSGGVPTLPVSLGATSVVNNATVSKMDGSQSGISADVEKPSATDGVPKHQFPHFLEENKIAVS
# Technique: universal PBM
# Molecule type: double-stranded DNA, one strand shown
# Medium: in vitro
# Tested at: 600 nM
# Setting: 8-mer, flanks averaged, mean of replicates
# Direction: higher = stronger binding
Sequence,E-score
TCCGTCGA,-0.0203
CCCGTAGG,-0.326
GGAATGAA,0.213
TACCTCAA,0.0599
GTACTCCA,-0.192
GATTAGAA,0.13
CAGTCTAG,-0.148
GTACCATA,0.124

# Series 3
# SMILES: CCc1ccccc1C(=O)Nc1n[nH]c2c(C)c(F)c(C3C(C#N)=C(C)N(C)C(C)=C3C#N)cc12
# Tested at: 1 µM
target,test,remaining binding [%]
"PI4KB (Homo sapiens, UniProt Q9UBF8)","cell-free assay, competition with immobilised ligand",100
"PIK3CB (Homo sapiens, UniProt P42338)","cell-free assay, competition with immobilised ligand",100
"STK32C (Homo sapiens, UniProt Q86UX6)","binding, competition with immobilised ligand",100
"TEC (Homo sapiens, UniProt P42680)","binding, competition with immobilised ligand",91
"FES (Homo sapiens, UniProt P07332)","cell-free assay, competition with immobilised ligand",68
"Tyrosine-protein kinase ABL1, phosphorylated (ABL1, Homo sapiens, UniProt P00519, F317I)",binding,100
"MATK (Homo sapiens, UniProt P42679)","cell-free assay, competition with immobilised ligand",100
"PIK3CA (Homo sapiens, UniProt P42336, E545A)","cell-free assay, competition with immobilised ligand",100
"ALK (Homo sapiens, UniProt Q9UM73)","cell-free assay, competition with immobilised ligand",98
"CSNK2A1 (Homo sapiens, UniProt P68400)","cell-free assay, competition with immobilised ligand",100
"PRPF4B (Homo sapiens, UniProt Q13523)","cell-free assay, competition with immobilised ligand",72
"CDK4 (Homo sapiens, UniProt P11802)","cell-free assay, competition with immobilised ligand",100
"STK24 (Homo sapiens, UniProt Q9Y6E0)","cell-free assay, competition with immobilised ligand",90
"MAP4K3 (Homo sapiens, UniProt Q8IVH8)","cell-free assay, competition with immobilised ligand",100
"SRPK3 (Homo sapiens, UniProt Q9UPE1)","cell-free assay, competition with immobilised ligand",100
"PKMYT1 (Homo sapiens, UniProt Q99640)","cell-free assay, competition with immobilised ligand",100

# Mixed results
Structure (SMILES),target,test,setting,scale,measurement,value
O=C1c2ccccc2-[n+]2ccc3c([nH]c4ccccc43)c21,"Cyclin-dependent kinase 1, with cyclin A (CDK1, Homo sapiens, UniProt P06493)","enzyme activity, inhibitor",0.5 µM,baseline: control,remaining activity,68%

# A few entries again (series 3):
target,test,remaining binding [%]
"PIK3CB (Homo sapiens, UniProt P42338)","cell-free assay, competition with immobilised ligand",100
"PRPF4B (Homo sapiens, UniProt Q13523)","cell-free assay, competition with immobilised ligand",72
